Values quoted from earlier work, collected from citations in different studies.
Numbers after ± are the reported error.
UniProt P23458, sequence (whole entry, looked up): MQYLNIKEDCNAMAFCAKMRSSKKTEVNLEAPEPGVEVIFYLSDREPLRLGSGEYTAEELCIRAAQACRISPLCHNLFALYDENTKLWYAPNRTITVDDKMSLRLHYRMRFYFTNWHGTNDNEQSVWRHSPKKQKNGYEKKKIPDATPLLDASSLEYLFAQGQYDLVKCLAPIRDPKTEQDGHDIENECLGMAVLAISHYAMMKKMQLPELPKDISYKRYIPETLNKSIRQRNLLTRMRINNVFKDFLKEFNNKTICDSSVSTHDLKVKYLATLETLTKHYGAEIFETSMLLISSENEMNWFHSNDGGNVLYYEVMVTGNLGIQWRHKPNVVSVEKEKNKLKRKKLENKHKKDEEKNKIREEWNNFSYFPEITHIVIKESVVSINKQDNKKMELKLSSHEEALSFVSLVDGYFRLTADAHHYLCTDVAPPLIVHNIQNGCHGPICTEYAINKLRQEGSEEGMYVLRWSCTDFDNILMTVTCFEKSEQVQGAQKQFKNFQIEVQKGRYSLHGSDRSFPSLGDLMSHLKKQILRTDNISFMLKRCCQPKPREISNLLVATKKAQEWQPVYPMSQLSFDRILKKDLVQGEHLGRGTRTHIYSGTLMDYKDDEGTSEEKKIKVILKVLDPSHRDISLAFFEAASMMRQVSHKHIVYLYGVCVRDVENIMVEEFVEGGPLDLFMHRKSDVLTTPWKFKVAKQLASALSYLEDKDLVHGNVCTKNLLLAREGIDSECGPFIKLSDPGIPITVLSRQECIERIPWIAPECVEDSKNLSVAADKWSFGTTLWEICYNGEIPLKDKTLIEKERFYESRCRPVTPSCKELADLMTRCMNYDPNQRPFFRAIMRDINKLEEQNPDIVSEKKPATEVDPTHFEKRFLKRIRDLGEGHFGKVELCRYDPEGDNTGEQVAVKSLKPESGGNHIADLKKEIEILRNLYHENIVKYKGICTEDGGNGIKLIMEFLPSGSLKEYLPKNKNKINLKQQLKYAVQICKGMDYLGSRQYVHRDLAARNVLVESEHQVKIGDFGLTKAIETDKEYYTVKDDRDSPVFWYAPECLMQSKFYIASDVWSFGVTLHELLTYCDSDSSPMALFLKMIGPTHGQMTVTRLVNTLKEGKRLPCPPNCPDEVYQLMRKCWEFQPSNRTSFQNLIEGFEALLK

| Compound | target | test | system | conditions | how to read | endpoint | result |
| --- | --- | --- | --- | --- | --- | --- | --- |
| CNCc1cn(S(=O)(=O)c2cccc(F)c2)c(-c2ccc(F)cc2F)c1OC | CYP2C19 | enzyme activity, inhibitor | – | – | – | IC50 | 44.7 µM |
| O=S(=O)(O)C(F)(F)F | CYP2C19 | inhibitor | – | Tox21 screening | – | IC50 | inactive |
| OC(Cn1cncn1)(Cn1cncn1)c1ccc(F)cc1F | CYP2C19 | inhibitor | – | – | – | Ki | 2 µM |
| CC(C)(CO)c1cc2cc(NC(=O)C3(c4ccc5c(c4)OC(F)(F)O5)CC3)c(F)cc2n1C[C@@H](O)CO | CYP2C19 | inhibitor | – | – | – | Ki | 22.5 µM |
| Nc1cc(C(F)(F)F)c(-c2nc(N3CCOCC3)nc(N3CCOCC3)n2)cn1 | Tyrosine-protein kinase JAK1, JH1 kinase domain (JAK1, Homo sapiens, UniProt P23458) | enzyme activity | – | 10 µM | reference: untreated | remaining activity | 80% |
| CCCCNC(=O)NS(=O)(=O)c1ccc(C)cc1 | CYP2C19 | – | – | 4-hydroxylation pathway | – | CLint | 0.028 µL/min/pmol |
| COc1ccc2nc([S@+]([O-])Cc3ncc(C)c(OC)c3C)[nH]c2c1 | CYP2C19 | mechanism-based inhibitor | – | – | – | unbound fraction in microsomes | 1 |
| COC(=O)N[C@H](C(=O)N1CCC[C@H]1c1nc(-c2ccc3c(c2)O[C@@H](c2ccccc2)n2c-3cc3cc(-c4c[nH]c([C@@H]5CCCN5C(=O)[C@@H](NC(=O)OC)C(C)C)n4)ccc32)c[nH]1)C(C)C | CYP2C19 | inhibitor | human liver microsomes | – | – | IC50 | > 100 µM |
| NS(=O)(=O)C(F)(F)C(F)(F)C(F)(F)C(F)(F)C(F)(F)C(F)(F)C(F)(F)C(F)(F)F | CYP2C19 | inhibitor | – | – | – | IC50 | 64.2 ± 43.4 µM |
| CC(=O)Nc1ccc(O)cc1 | CYP2C19 | substrate | – | – | – | Km | 2000 µM |
| FC(F)OC(Cl)C(F)(F)F (centres unmarked) | CYP2C19 | inhibitor | – | Tox21 screening | – | IC50 | 79.7 µM |
| N#CCNC(=O)c1ccc(-c2ccnc(Nc3ccc(N4CCOCC4=O)cc3)n2)cc1 | CYP2C19 | enzyme activity, inhibitor | – | concentration not given | – | inhibition | no inhibition |
| FC1(F)C(F)(F)C(F)(F)C2(F)C(F)(F)C(F)(F)C(F)(F)C(F)(F)C2(F)C1(F)F (centres unmarked) | CYP2C19 | inhibitor | – | Tox21 screening | – | IC50 | inactive |
| COc1ccc2[nH]c([S@@+]([O-])Cc3ncc(C)c(OC)c3C)nc2c1 | CYP2C19 | 5-hydroxylation | – | in vitro | – | fraction of intrinsic clearance | ~70% |

Repeated from above:
| Compound | target | test | system | conditions | how to read | endpoint | result |
| --- | --- | --- | --- | --- | --- | --- | --- |
| FC(F)OC(Cl)C(F)(F)F (centres unmarked) | CYP2C19 | inhibitor | – | Tox21 screening | – | IC50 | 79.7 µM |
| N#CCNC(=O)c1ccc(-c2ccnc(Nc3ccc(N4CCOCC4=O)cc3)n2)cc1 | CYP2C19 | enzyme activity, inhibitor | – | concentration not given | – | inhibition | no inhibition |
